Experimental data of several laboratories.
Lines come from different studies, so protocols differ. Numbers after ± are the reported error.
Seed linoleate 13S-lipoxygenase-1: Seed linoleate 13S-lipoxygenase-1 (Glycine max, UniProt P08170)
UniProt P08170, sequence (whole entry, looked up): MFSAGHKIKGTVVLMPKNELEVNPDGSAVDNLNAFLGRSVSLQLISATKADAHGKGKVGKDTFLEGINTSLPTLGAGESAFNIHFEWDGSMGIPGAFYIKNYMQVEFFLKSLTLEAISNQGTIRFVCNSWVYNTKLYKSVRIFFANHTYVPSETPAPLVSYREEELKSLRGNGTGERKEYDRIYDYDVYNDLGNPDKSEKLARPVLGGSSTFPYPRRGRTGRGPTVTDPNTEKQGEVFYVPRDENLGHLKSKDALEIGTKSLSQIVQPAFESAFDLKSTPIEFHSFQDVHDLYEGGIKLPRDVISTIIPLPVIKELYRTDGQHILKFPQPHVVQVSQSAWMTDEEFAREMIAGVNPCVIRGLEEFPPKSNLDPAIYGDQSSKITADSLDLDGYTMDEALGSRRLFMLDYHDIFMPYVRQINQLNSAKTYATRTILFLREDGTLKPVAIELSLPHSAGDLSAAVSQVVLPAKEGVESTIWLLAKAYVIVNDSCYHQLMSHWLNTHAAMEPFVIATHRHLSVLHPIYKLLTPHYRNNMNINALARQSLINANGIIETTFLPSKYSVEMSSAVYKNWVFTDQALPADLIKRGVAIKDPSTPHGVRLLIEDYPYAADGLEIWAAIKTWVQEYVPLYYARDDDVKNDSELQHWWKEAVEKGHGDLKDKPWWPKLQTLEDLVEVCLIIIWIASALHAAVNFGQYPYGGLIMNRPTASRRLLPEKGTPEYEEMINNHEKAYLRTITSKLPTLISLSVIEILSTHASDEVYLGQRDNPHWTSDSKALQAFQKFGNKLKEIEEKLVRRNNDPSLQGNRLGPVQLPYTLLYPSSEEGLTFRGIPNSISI
MAPK14: Mitogen-activated protein kinase 14 (MAPK14, Homo sapiens, UniProt Q16539)
UniProt Q16539, sequence (whole entry, looked up): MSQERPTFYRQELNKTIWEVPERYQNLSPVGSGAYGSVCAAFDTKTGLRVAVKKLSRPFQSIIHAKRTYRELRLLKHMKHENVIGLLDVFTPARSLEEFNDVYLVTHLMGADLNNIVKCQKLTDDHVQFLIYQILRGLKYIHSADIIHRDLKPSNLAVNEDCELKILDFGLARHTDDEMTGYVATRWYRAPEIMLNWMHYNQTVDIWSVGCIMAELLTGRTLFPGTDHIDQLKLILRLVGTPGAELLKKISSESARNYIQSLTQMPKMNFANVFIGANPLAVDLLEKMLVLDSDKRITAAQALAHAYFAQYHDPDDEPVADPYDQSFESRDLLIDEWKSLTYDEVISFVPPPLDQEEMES
UniProt P61073, sequence (whole entry, looked up): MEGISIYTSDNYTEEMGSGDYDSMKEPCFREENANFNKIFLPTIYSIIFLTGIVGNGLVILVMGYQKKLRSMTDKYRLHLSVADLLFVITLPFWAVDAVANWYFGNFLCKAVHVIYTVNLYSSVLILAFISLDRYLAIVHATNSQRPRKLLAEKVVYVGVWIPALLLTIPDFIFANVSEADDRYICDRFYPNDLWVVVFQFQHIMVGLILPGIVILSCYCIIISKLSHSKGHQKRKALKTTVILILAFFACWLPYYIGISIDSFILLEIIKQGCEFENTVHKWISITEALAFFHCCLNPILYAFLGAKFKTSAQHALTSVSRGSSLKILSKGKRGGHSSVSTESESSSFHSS
UniProt P15101, sequence (whole entry, looked up): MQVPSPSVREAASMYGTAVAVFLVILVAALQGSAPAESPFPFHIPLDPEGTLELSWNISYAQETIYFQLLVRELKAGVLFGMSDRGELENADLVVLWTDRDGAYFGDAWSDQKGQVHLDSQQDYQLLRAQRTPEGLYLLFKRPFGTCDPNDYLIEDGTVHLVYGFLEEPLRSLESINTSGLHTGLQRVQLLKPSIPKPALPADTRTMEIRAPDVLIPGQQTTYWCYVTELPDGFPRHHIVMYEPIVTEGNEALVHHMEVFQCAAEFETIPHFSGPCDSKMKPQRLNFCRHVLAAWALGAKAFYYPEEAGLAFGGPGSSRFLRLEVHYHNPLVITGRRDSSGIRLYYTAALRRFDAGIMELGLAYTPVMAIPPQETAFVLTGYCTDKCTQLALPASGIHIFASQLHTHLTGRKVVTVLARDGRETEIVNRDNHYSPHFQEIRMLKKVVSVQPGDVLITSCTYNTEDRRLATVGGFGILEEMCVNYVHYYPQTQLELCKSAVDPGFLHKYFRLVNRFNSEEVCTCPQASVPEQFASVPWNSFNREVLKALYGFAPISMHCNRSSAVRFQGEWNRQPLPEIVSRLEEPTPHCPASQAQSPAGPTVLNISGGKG
UniProt O89049, sequence (whole entry, looked up): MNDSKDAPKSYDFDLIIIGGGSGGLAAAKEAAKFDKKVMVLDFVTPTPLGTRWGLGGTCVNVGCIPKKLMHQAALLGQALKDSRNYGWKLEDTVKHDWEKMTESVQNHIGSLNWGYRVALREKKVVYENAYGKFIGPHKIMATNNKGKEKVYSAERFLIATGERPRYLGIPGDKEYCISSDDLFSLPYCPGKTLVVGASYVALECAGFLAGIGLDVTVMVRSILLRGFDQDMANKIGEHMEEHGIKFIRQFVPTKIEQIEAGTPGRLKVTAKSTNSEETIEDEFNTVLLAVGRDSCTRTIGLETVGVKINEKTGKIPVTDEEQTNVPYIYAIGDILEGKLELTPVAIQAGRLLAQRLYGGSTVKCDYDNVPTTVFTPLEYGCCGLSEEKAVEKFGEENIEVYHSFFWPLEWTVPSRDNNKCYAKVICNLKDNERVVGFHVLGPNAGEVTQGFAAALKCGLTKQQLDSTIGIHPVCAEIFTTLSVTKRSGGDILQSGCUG
UniProt P22411, sequence (whole entry, looked up): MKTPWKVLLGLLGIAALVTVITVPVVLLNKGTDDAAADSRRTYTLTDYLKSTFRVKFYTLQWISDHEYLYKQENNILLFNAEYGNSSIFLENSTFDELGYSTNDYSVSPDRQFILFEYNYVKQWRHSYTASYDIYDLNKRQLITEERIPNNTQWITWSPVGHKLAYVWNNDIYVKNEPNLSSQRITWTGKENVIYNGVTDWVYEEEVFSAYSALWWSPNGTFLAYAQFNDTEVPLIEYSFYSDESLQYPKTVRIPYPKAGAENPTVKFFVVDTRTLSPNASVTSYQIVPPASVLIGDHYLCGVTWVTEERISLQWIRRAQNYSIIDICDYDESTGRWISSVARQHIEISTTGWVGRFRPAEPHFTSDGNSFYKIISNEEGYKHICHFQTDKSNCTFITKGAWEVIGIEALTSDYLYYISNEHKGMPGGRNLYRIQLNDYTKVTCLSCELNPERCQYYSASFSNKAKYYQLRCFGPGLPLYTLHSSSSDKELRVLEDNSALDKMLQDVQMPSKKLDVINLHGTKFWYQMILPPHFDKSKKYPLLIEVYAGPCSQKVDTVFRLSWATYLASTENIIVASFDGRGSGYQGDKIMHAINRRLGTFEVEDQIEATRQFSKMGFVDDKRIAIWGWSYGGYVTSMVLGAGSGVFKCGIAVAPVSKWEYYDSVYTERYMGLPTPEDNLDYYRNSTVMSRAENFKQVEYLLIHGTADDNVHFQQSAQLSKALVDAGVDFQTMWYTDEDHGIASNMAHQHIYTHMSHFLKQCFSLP
UniProt O60674, sequence (whole entry, looked up): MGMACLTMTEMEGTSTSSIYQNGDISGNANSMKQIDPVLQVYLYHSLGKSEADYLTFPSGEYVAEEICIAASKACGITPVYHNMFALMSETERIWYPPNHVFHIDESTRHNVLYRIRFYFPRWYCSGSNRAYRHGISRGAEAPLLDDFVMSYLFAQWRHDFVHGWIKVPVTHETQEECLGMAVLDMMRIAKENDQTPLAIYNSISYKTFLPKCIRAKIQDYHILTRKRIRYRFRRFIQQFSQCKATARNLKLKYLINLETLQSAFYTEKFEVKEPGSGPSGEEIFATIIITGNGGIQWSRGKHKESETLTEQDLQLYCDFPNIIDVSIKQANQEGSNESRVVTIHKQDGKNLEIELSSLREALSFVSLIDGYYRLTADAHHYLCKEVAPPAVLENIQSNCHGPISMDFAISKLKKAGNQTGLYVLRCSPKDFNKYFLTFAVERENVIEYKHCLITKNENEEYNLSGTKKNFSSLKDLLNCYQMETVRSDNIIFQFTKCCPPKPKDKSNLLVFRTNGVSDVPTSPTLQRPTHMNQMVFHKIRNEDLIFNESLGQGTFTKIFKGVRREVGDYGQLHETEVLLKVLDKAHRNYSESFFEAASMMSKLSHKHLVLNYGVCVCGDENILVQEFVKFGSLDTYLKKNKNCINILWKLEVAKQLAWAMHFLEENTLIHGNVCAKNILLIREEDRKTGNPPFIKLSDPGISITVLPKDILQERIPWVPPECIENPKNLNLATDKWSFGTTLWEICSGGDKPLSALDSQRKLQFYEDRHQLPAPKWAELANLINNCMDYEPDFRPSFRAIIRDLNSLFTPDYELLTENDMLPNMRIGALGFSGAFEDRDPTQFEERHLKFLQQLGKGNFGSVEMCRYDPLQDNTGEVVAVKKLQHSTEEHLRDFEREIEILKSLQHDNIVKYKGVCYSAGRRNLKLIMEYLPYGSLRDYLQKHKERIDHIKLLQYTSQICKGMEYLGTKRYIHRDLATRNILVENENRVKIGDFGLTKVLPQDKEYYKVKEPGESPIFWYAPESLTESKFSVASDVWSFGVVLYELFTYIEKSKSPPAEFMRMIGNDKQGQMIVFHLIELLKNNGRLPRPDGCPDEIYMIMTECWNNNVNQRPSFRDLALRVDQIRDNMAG
UniProt P30968, sequence (whole entry, looked up): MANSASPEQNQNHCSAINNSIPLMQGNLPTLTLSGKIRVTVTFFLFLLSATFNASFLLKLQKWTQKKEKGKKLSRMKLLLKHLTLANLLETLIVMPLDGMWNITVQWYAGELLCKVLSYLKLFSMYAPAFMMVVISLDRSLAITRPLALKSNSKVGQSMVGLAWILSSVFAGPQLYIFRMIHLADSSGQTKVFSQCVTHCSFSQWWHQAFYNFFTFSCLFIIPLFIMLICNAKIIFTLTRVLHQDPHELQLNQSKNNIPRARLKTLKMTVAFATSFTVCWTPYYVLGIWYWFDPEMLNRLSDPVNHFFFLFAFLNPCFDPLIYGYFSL

Compound	target	test	system	conditions	inhibition
Cc1ccc2c(c1)C(O)(CC(=O)c1ccc3c(c1)OCO3)C(=O)N2 (stereo not shown)	Uncharacterized protein (Trypanosoma brucei brucei, UniProt Q386Q8)	enzyme activity, inhibitor, coupled colorimetric	Trypanosoma brucei	100 µM	27%
COc1c2c(cc3oc(=O)cc(-c4ccc(O)cc4)c13)C(=O)c1cc(C)cc(O)c1C2=O	mushroom tyrosinase	enzyme activity	–	25 µg/mL, together with: L-DOPA	33.73 ± 0.33%
CCn1c(SC(C)C(=O)NCc2ccccc2)nnc1C1CCN(C(=O)Nc2ccccc2)CC1 (stereo not shown)	Seed linoleate 13S-lipoxygenase-1	enzyme activity, inhibitor	–	250 µM	88.5%
Oc1ccc(CCC(O)CC(O)CCc2ccc(O)cc2)cc1 (stereo not shown)	Dopamine beta-hydroxylase (Bos taurus, UniProt P15101)	enzyme activity, inhibitor	–	100 µg/mL	25.6%
CN(C)c1nccc(CN(C)S(=O)(=O)Cc2cccc3cccnc23)n1	C-X-C chemokine receptor type 4 (CXCR4, Homo sapiens, UniProt P61073)	β-arrestin recruitment	–	10 µM	> 50%
COc1ccc(NC(=O)C2C(=O)C(c3ccccc3)c3ccc4c(c32)C(=O)c2ccccc2C4=O)cc1 (stereo not shown)	mushroom tyrosinase	enzyme activity, inhibitor, spectrophotometry	–	50 µg/mL, together with: L-DOPA substrate	28.11 ± 0.23%
CCc1ccccc1NC(=O)C(C)Sc1nnc(C2CCN(C(=O)Nc3ccccc3)CC2)n1CC (stereo not shown)	Seed linoleate 13S-lipoxygenase-1	enzyme activity, inhibitor	–	250 µM	87.3%
CCn1c(C)c(C(=O)c2ccccc2)c(=O)n1-c1cccc(S(N)(=O)=O)c1	Tyrosine-protein kinase JAK2 (JAK2, Homo sapiens, UniProt O60674)	enzyme activity, inhibitor, ADP detection	–	1 µM	79.3%
Cc1cc(O)c2c(c1)C(=O)c1cc3oc(=O)cc(-c4ccc(Cl)cc4)c3c(O)c1C2=O	mushroom tyrosinase	enzyme activity	–	25 µg/mL, together with: L-DOPA	13.2 ± 0.46%
CNc1cncc(-c2ccc(OC)c(OC)c2)n1	MAPK14	primary fragment screen	–	1 mM, together with: ATP 10 µM	62.3%
COc1cc(Oc2c(O)cc(C)cc2OC)c(C(=O)O)c(C)c1O	Gag-Pol polyprotein, reverse transcriptase (gag-pol, Human immunodeficiency virus 1, UniProt P03366)	enzyme activity, inhibitor, PicoGreen fluorescence	–	10 µM	24.3%
COc1cc(OC)c2c(c1)C(=O)c1cc3oc(=O)cc(C)c3c(O)c1C2=O	mushroom tyrosinase	enzyme activity	–	25 µg/mL, together with: L-DOPA	34.9 ± 0.41%
O=C1c2ccccc2C(=O)c2c1ccc1c2C(C(=O)NCc2ccccc2)C(=O)C1c1ccccc1 (stereo not shown)	mushroom tyrosinase	enzyme activity, inhibitor, spectrophotometry	–	25 µg/mL, together with: L-DOPA substrate	33.2 ± 1%
Cc1c2c(cc3oc(=O)cc(-c4ccc(Cl)cc4)c13)C(=O)c1cccc(O)c1C2=O	mushroom tyrosinase	enzyme activity	–	100 µg/mL, together with: L-DOPA	67.47 ± 0.14%
Cc1ccc(NC(=O)C2C(=O)C(c3ccccc3)c3ccc4c(c32)C(=O)c2ccccc2C4=O)cc1 (stereo not shown)	mushroom tyrosinase	enzyme activity, inhibitor, spectrophotometry	–	50 µg/mL, together with: L-DOPA substrate	70 ± 1.09%
CC[C@H](C)[C@H](NC(=O)[C@@H]1CSSC[C@H](NC(=O)[C@H](Cc2ccc(O)cc2)NC(=O)CNC(C)=O)C(=O)N[C@@H](CO)C(=O)N[C@@H](CCCNC(=N)N)C(=O)N[C@@H](CO)C(=O)N[C@@H](Cc2ccc(O)cc2)C(=O)N2CCC[C@H]2C(=O)N2CCC[C@H]2C(=O)N[C@@H](C(C)C)C(=O)N1)C(=O)N1CCC[C@H]1C(=O)N[C@@H](CC(=O)O)C(=O)O	Mannan-binding lectin serine protease 1 (Homo sapiens, UniProt P48740)	enzyme activity, inhibitor	–	15 µM, together with: 10 nM MASP-1	17%
NCCC(=O)N[C@@H](Cc1c[nH]c2ccc(O)cc12)C(=O)N[C@@H](Cc1ccc(Cl)cc1)C(=O)N[C@@H](Cc1ccncc1)C(N)=O	EphA3 receptor	ephrin-A5 binding, ELISA	–	500 µM	25%

Compound	target	test	system	conditions	inhibition
Cc1cc(O)c2c(c1)C(=O)c1cc3oc(=O)cc(-c4ccccc4)c3c(O)c1C2=O	mushroom tyrosinase	enzyme activity	–	100 µg/mL, together with: L-DOPA	44.58 ± 0.15%
O=c1c2ccccc2ncn1-c1ccccc1F	MAPK14	primary fragment screen	–	0.25 mM, together with: ATP 10 µM	50%
Cc1cc(O)c2c(c1)C(=O)c1cc3oc(=O)cc(C)c3c(O)c1C2=O	mushroom tyrosinase	enzyme activity	–	100 µg/mL, together with: L-DOPA	38.55 ± 0.17%
O=C(O)c1ccc(Nc2c(-c3ccc(CON=Cc4ccc(N5CCCC5=O)cc4)cc3)nc3cc(-c4ccccc4)ccn23)cc1	Tyrosyl-DNA phosphodiesterase 1 (TDP1, Homo sapiens, UniProt Q9NUW8)	enzyme activity	–	100 µM, primary screen	> 90%
c1ccc(CNc2cnccn2)cc1	MAPK14	primary fragment screen	–	0.25 mM, together with: ATP 10 µM	28.5%
CC1=C2C(=O)C3CC[C@@H](C)C2(CC1)C3(C)C (stereo partly shown)	Dipeptidyl peptidase 4 (DPP4, Sus scrofa, UniProt P22411)	enzyme activity, inhibitor, absorbance	–	50 µg/mL	23.9%
Cc1cc(O)cc2c1C(=O)c1c(cc3oc(=O)cc(C)c3c1O)C2=O	mushroom tyrosinase	enzyme activity	–	25 µg/mL, together with: L-DOPA	32.53 ± 0.01%
COc1cc(/C=C/C(=O)c2ccc3c(c2)OCO3)ccc1OCc1ccccc1	Multidrug resistance-associated protein 1 (ABCC1, Homo sapiens, UniProt P33527)	calcein efflux, flow cytometry	–	10 µM	no inhibition
Cc1cc(O)cc2c1C(=O)c1c(cc3oc(=O)cc(-c4ccc(Cl)cc4)c3c1O)C2=O	mushroom tyrosinase	enzyme activity	–	25 µg/mL, together with: L-DOPA	26.3 ± 0.31%
COc1cc(/C=C/C(=O)CC(C)=O)ccc1O	Thioredoxin reductase 1, cytoplasmic (Txnrd1, Rattus norvegicus, UniProt O89049)	enzyme activity, inhibitor, absorbance	–	50 µM, 30 min, pH 7.4	15 to 25%
Nc1nc(Nc2ccccc2)sc1C(=O)c1ccccc1	Homeodomain-interacting protein kinase 2 (HIPK2, Homo sapiens, UniProt Q9H2X6)	enzyme activity, inhibitor	–	10 µM	> 90%
CC(=O)c1cnc(N)nc1N1CC[C@H]1c1nn2ccc(Cl)c2c(=O)n1-c1ccccc1	Inward rectifier potassium channel 2 (KCNJ2, Homo sapiens, UniProt P63252)	ion current, inhibitor	–	3 µM	< 10%
O=C(NCc1ccncc1)c1cc(F)cc(F)c1	MAPK14	primary fragment screen	–	0.25 mM, together with: ATP 10 µM	33.2%
FC(F)(F)c1csc(Nc2ccc(Cl)c(Cl)c2)n1	Kinesin-like protein KIF15, residues 1-700 (Homo sapiens, UniProt Q9NS87)	microtubule gliding	–	100 µM, after washout	> 90%
CC(C)C[C@H](NC(=O)[C@@H](CCCCNC(=O)CCCCCNC(=O)CN1CCN(CC(=O)O)CCN(CC(=O)O)CCN(CC(=O)O)CC1)NC(=O)[C@H](Cc1ccc(O)cc1)NC(=O)[C@H](CO)NC(=O)[C@H](Cc1c[nH]c2ccccc12)NC(=O)[C@H](Cc1c[nH]cn1)NC(=O)[C@@H]1CCC(=O)N1)C(=O)N[C@@H](CCCNC(=N)N)C(=O)N1CCC[C@H]1C(=O)NCC(N)=O [indium-111 labelled]	Gonadotropin-releasing hormone receptor (GNRHR, Homo sapiens, UniProt P30968)	radioligand binding	–	concentration not given, 3 h, 25 °C, together with: DOTA-Ahx-D-Lys6-GnRH1 1 µM	86%
O=C1NCCN=C1CC(=O)c1ccccc1	MAPK14	primary fragment screen	–	0.25 mM, together with: ATP 10 µM	79.2%
COc1cc(C(=O)NC2CCC(N3CCN(CC4CCC5(CCCC5)C4)CC3)CC2)c(F)cc1Nc1ncc2c(n1)N(C1CCCC1(F)F)CC(F)(F)C(=O)N2C (stereo not shown)	Fibroblast growth factor receptor 2 (FGFR2, Homo sapiens, UniProt P21802)	cell-free assay, TR-FRET	–	10 µM	0.75%

For quick reference, copied from above:
Compound	target	test	system	conditions	inhibition
COc1cc(/C=C/C(=O)CC(C)=O)ccc1O	Thioredoxin reductase 1, cytoplasmic (Txnrd1, Rattus norvegicus, UniProt O89049)	enzyme activity, inhibitor, absorbance	–	50 µM, 30 min, pH 7.4	15 to 25%
c1ccc(CNc2cnccn2)cc1	MAPK14	primary fragment screen	–	0.25 mM, together with: ATP 10 µM	28.5%
CCc1ccccc1NC(=O)C(C)Sc1nnc(C2CCN(C(=O)Nc3ccccc3)CC2)n1CC (stereo not shown)	Seed linoleate 13S-lipoxygenase-1	enzyme activity, inhibitor	–	250 µM	87.3%
O=c1c2ccccc2ncn1-c1ccccc1F	MAPK14	primary fragment screen	–	0.25 mM, together with: ATP 10 µM	50%
